Measurements gathered from unrelated publications.
Each numbered part is a random draw from the data of one study; scales do not carry over between parts.
Sequence of UniProt P51955 (whole entry, looked up): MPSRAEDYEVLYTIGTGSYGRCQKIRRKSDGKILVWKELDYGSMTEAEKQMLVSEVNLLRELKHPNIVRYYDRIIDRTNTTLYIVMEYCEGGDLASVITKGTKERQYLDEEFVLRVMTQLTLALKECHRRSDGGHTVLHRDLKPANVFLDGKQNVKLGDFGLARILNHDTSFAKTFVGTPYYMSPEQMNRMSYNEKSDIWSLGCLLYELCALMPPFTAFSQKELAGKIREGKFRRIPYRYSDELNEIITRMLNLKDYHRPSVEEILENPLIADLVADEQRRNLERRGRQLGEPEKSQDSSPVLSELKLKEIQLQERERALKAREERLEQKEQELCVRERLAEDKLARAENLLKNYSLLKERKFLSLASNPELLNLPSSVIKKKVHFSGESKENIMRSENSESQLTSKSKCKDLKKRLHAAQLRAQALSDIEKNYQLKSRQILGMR
Sequence of UniProt Q6DT37 (whole entry, looked up): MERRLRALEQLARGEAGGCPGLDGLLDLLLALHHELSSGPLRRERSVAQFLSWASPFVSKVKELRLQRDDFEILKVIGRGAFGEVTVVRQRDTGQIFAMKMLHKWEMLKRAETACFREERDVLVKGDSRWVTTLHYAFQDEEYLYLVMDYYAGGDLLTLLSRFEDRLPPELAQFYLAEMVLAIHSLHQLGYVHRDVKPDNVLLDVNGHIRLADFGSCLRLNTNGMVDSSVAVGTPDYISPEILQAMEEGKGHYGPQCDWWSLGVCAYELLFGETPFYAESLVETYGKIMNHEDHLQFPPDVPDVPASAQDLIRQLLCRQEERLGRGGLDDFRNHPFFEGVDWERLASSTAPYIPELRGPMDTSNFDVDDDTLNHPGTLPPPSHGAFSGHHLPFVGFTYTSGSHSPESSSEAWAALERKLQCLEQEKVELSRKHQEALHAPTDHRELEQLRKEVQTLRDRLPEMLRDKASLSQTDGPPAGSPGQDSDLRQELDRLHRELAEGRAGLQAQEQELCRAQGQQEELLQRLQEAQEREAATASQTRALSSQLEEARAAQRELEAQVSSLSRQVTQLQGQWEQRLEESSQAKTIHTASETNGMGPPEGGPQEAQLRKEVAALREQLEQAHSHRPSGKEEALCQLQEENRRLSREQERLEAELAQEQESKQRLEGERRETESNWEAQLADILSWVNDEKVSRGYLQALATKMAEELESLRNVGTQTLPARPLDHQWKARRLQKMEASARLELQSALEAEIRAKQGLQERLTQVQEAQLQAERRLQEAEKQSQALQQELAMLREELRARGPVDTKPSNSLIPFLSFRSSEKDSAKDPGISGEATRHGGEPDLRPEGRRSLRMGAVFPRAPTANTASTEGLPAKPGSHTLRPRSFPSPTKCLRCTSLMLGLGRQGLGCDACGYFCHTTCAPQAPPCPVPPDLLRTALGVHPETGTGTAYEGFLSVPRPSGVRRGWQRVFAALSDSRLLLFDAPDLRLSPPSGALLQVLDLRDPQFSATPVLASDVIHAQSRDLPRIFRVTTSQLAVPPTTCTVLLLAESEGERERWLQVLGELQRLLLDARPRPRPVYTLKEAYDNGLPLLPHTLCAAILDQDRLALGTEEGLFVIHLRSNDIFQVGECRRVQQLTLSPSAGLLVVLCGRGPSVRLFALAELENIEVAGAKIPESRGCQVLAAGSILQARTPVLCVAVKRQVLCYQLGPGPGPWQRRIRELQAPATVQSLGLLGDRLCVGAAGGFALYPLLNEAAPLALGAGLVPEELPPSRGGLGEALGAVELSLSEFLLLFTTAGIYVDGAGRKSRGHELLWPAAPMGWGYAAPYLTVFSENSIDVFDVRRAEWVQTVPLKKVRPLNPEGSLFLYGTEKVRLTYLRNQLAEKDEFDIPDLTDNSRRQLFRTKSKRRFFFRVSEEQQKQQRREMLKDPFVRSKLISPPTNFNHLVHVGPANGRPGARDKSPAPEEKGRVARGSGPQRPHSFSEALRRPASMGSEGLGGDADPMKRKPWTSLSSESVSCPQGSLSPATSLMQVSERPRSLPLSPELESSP
Sequence of UniProt O00141 (whole entry, looked up): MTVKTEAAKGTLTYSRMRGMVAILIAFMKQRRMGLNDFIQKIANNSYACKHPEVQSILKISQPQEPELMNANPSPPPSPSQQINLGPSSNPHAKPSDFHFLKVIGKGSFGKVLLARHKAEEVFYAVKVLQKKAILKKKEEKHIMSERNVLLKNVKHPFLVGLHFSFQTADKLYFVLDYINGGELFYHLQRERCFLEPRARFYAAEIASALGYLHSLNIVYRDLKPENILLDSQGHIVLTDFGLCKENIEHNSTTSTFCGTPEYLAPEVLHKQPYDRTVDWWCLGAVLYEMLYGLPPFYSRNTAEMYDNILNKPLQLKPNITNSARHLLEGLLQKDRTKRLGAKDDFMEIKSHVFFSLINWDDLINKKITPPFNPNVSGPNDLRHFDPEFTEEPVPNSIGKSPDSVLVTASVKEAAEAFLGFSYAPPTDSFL
Sequence of UniProt Q8IYT8 (whole entry, looked up): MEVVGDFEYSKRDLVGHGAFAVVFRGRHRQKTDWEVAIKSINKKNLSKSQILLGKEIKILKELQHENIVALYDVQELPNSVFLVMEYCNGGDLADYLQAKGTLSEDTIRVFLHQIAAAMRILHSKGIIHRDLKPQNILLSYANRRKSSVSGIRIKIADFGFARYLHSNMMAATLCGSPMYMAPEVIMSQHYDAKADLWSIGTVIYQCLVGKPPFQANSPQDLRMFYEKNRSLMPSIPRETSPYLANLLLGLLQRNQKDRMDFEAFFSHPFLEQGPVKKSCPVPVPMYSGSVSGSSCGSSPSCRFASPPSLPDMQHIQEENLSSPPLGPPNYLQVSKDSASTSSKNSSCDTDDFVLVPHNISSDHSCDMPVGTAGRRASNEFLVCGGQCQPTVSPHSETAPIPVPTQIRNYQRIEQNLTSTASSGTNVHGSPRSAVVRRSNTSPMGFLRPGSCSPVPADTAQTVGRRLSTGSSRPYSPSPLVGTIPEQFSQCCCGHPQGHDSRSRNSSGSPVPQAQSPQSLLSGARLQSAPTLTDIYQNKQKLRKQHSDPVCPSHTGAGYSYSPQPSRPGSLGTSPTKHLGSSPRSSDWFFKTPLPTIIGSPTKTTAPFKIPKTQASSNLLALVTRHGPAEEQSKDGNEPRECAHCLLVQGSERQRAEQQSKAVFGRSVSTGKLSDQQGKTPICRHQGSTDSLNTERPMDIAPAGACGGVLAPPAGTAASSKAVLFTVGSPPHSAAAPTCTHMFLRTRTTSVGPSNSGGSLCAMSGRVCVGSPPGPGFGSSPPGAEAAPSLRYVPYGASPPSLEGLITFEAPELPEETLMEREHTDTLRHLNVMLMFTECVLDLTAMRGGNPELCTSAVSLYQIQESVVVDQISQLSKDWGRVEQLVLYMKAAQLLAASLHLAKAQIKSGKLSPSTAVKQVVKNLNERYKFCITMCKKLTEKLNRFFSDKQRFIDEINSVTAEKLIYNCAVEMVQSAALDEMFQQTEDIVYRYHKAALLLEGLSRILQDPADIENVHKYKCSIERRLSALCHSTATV
Sequence of UniProt P22455 (whole entry, looked up): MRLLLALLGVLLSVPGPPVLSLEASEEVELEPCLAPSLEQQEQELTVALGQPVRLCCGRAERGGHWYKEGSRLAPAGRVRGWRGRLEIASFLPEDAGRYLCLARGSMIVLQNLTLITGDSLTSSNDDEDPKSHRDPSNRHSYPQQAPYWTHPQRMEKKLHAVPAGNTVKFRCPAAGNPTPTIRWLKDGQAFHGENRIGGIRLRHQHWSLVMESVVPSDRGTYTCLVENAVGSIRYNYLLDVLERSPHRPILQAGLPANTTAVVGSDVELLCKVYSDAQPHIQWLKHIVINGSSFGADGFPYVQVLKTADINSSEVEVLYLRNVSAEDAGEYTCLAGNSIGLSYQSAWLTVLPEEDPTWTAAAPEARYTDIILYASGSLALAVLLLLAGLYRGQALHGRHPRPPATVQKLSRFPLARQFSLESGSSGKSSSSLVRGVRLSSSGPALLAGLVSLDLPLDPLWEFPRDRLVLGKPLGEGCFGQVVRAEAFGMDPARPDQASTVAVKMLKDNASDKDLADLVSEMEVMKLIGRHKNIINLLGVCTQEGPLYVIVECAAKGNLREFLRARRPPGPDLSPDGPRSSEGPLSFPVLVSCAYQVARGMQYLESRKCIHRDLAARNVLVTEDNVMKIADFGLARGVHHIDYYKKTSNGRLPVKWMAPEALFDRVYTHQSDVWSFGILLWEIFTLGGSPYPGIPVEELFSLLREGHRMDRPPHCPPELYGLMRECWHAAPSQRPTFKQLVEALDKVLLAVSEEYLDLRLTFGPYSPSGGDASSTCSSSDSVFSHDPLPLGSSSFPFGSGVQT
Sequence of UniProt Q13177 (whole entry, looked up): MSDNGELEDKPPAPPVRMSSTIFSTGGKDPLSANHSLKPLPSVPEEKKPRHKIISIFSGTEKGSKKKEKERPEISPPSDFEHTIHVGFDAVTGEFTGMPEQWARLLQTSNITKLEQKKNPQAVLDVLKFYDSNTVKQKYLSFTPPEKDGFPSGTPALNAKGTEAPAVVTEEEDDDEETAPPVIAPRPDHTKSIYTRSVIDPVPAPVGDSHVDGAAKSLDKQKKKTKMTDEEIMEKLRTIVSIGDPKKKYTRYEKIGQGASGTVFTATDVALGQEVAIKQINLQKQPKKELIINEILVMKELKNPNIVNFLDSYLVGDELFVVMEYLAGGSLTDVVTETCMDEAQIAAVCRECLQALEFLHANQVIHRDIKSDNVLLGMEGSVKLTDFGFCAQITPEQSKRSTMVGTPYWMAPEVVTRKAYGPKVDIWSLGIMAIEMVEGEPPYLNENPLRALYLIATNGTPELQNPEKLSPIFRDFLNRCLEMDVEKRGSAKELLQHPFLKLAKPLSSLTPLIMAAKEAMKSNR

Sample 1
Species: human
Medium: microsomes or S9
Tested at: 2 µM
Time: 0.5 h
SMILES	remaining compound
Cc1cnc(C2=NC(C)(C(C)C)C(=O)N2)c(C(O)C(=O)N(C)c2ccc(Cl)c(Cl)c2)c1 (stereo not shown)	5.33%
O=C(Nc1ccc(/C=C/C(=O)N2CCC[C@H]2C(=O)O)cc1)Nc1ccccc1Br	> 99%
COc1cc(=O)n(C)cc1C(=O)N1CCN(c2ccccc2Cl)CC1	80.9%

Sample 2
Structure (SMILES): COc1ccc2c(O[C@@H]3C[C@H]4C(=O)N[C@]5(C(=O)O)CC5/C=C\CCCCC[C@H](NC(=O)OC5CCCC5)C(=O)N4C3)cc(-c3csc(NC(=O)C(C)C)n3)nc2c1C (stereo partly shown)
Tested at: 1 µM
target	assay	remaining binding
Serine/threonine-protein kinase RIO1 (RIOK1, Homo sapiens, UniProt Q9BRS2)	cell-free assay, competition with immobilised ligand	93%
Serine/threonine-protein kinase ULK2 (ULK2, Homo sapiens, UniProt Q8IYT8)	cell-free assay, competition with immobilised ligand	95%
Serine/threonine-protein kinase MAK (MAK, Homo sapiens, UniProt P20794)	cell-free assay, competition with immobilised ligand	100%
Serine/threonine-protein kinase MRCK gamma (CDC42BPG, Homo sapiens, UniProt Q6DT37)	competition binding	100%
Myosin light chain kinase (MYLK3, Homo sapiens, UniProt Q32MK0)	cell-free assay, competition with immobilised ligand	100%
Serine/threonine-protein kinase Nek2 (NEK2, Homo sapiens, UniProt P51955)	cell-free assay, competition with immobilised ligand	94%
Homeodomain-interacting protein kinase 4 (HIPK4, Homo sapiens, UniProt Q8NE63)	cell-free assay, competition with immobilised ligand	99%
Phosphatidylinositol 4,5-bisphosphate 3-kinase catalytic subunit alpha isoform (PIK3CA, Homo sapiens, UniProt P42336, I800L)	cell-free assay, competition with immobilised ligand	65%
eIF-2-alpha kinase GCN2, C-terminal kinase domain (EIF2AK4, Homo sapiens, UniProt Q9P2K8, S808G)	cell-free assay, competition with immobilised ligand	100%

Sample 3
SMILES: Oc1cccc(-c2nc(N3CCOCC3)c3oc4ncccc4c3n2)c1
Effect on: enzyme activity
Action: inhibitor
Tested at: 0.5 µM
Reference: control
target	remaining activity
Serine/threonine-protein kinase PAK 2 (PAK2, Homo sapiens, UniProt Q13177)	97.5%
Fibroblast growth factor receptor 4 (FGFR4, Homo sapiens, UniProt P22455)	102%
Serine/threonine-protein kinase Sgk1 (SGK1, Homo sapiens, UniProt O00141)	100%

Sample 4
Cell line: HH
Tested at: 2 µM
Time: 48 h
Reference: untreated
Compound	viability
Cc1nc(Nc2cnn(C3CCNCC3)c2)nc2c1N(C)C(=O)c1cc3ccccc3cc1N2C	72.1%
CN(C)Cc1cccc(N=C(c2ccccc2)c2c(O)[nH]c3cc(C(=O)N(C)C)ccc23)c1	88.5%
CN1CCC(CNc2ccc3ncc(-c4cccc(OC(F)(F)F)c4)n3n2)CC1	87.5%
CNC(=O)c1ccccc1Nc1nc(Nc2ccc(N3CCOCC3)cc2OC)ncc1Cl	67.6%
